# Measurements gathered from unrelated publications.
# “And” joins repeats or separate records; there may be more than shown.
# Target: Cytochrome P450 3A4 (CYP3A4, Homo sapiens, UniProt P08684)
# UniProt P08684, sequence (whole entry, looked up): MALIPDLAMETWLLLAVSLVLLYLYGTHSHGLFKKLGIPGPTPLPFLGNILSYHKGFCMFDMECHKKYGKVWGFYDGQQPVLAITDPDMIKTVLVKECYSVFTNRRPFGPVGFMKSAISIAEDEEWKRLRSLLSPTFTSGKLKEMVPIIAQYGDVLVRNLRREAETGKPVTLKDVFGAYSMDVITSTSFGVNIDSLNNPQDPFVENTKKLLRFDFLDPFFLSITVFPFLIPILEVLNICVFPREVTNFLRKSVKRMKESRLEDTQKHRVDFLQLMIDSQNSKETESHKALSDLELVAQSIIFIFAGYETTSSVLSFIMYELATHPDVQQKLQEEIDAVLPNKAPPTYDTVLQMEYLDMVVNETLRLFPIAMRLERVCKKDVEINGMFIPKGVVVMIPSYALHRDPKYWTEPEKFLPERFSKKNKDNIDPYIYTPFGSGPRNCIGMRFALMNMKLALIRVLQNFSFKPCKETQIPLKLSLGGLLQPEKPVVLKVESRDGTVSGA
Structure (SMILES),assay,system,conditions,scale,quantity,result
CSc1ccccc1C(=O)NCCn1cc(C(=O)NCc2cccc(C)n2)c(=O)c2cc3c(cc21)OCO3,"enzyme activity, inhibitor",human liver microsomes,"20 min, 30 min NADPH preincubation, added: testosterone 50 µM",,IC50,6.71 µM
Cc1nc2c([nH]1)c(=O)n(C)c(=O)n2Cc1ccco1,"enzyme activity, inhibitor",,40 µM,,inhibition,-22%
Cn1cncc1[C@@](N)(c1ccc(Cl)cc1)c1ccc2c(c1)c(-c1cccc(Cl)c1)cc(=O)n2C,reaction phenotyping,human liver microsomes,,,fraction metabolised by CYP3A4,~36% and 36.4%
C[C@@H](Oc1ccc(S(C)(=O)=O)cc1C(=O)N1C[C@@H]2C[C@]2(c2cc(C(F)(F)F)on2)C1)C(F)(F)F,"recombinant CYP, average",,,,CYP contribution,96.4%
CSc1ccccc1C(=O)NCCn1cc(C(=O)NCc2cccc(C)n2)c(=O)c2cc3c(cc21)OC(F)(F)O3,"enzyme activity, inhibitor",human liver microsomes,"20 min, no NADPH preincubation, added: testosterone 50 µM",,IC50,53.5 µM
Cc1cc(Nc2ncnc3ccc(NC4=NC(C)(C)CO4)cc23)ccc1Oc1ccn2ncnc2c1,,"healthy volunteers, plasma","oral, 300 mg, day 1, single dose alone",,"%AUCextrap, median",0.968%
N#C[C@H](C[C@@H]1CCCNC1=O)NC(=O)[C@H](CC1CC1)NC(=O)c1cc2cccc(Cl)c2[nH]1,"enzyme activity, time-dependent inhibitor",human liver microsomes,added: midazolam 1'-hydroxylation,,kinact,0.00103 s⁻¹
O=C(NCCN1CCCC1)c1cc(-c2ccc(CN3CCOCC3)cc2)nc2ccc(F)cc12,,pooled human liver microsomes,"metabolism-dependent inhibition, added: midazolam",baseline: IC50 without over with preincubation,IC50 shift ratio,1 and > 1.2 and > 1.9
CC[C@H]1[C@@H](O)[C@@H]2[C@H](CC[C@]3(C)[C@@H]([C@H](C)CCNC(=O)NS(=O)(=O)c4ccc(C(C)(C)C)cc4)CC[C@@H]23)[C@@]2(C)CC[C@@H](O)C[C@@H]12,substrate,"human, plasma","10 mg, alone, study day 1",,elimination rate constant geometric mean,0.0667 h⁻¹
Cc1cccc(F)c1N1CCC(N2Cc3cn(CC(C)(F)F)nc3N(Cc3ccccc3C(F)(F)F)C2=O)CC1,testosterone 6β-hydroxylation,,,,IC50,> 10 µM
NC(=O)NC1CCC(CCN2CCN(c3cccc(Cl)c3Cl)CC2)CC1 (stereo not drawn),,human,"oral, dose not given, outlier subject excluded, added: erythromycin",baseline: compound alone,AUC(tau) increase,52%
CC[C@H](C)[C@@H]([C@@H](CC(=O)N1CCC[C@H]1[C@H](OC)[C@@H](C)C(=O)N[C@@H](Cc1ccccc1)C(=O)NCCCO)OC)N(C)C(=O)[C@@H](NC(=O)[C@H](C(C)C)N(C)C)C(C)C,recombinant CYP3A4,,1 µM,,CLint,0.3 µL/min/pmol
CCCCCC/C=C1\C=C(C(F)(F)F)c2cc3c(cc21)OCO3,"enzyme activity, inhibitor",pooled human liver microsomes,"concentration not given, 30 min, 37 °C, added: midazolam",,inhibition,no inhibition
C=CC(=O)N(C)CCOc1c(N)ncnc1-c1cc(F)cc(NC(=O)c2ccc(C3CC3)cc2F)c1C,,recombinant enzyme,pH 7.4,,Vmax,16.3 min⁻¹
C=C(F)C(=O)N1CCN(c2nc(OC[C@@H]3CCCN3C)nc3c2CCN(c2cccc4cccc(Cl)c24)C3)C[C@@H]1CC#N,,"healthy volunteers, plasma","200 mg, alone, median",,Tmax,6 h
CN(C(=O)n1cnc(-c2ccc[n+]([O-])c2)c1)C1CCCCC1,inhibitor,pooled human liver microsomes,0.1 to 30 µg/mL,baseline: control,remaining activity,86.6%
COc1ccc(F)cc1C(=O)NCc1ccc(-c2nn([C@@H](C)C(F)(F)F)c(N)c2C(N)=O)cc1,,"human, both sexes, plasma","oral, dose not given, added: rifampin 600 mg once daily",baseline: without rifampin,AUC decrease,71%
C=CC(=O)Nc1cc(Nc2nccc(-c3cn(C)c4ccccc34)n2)c(OCC(F)(F)F)nc1N(C)CCN(C)C,substrate depletion,recombinant human CYP,1 µM,,intrinsic clearance,3.79 µL/min/pmol
CCC(C)n1ncn(-c2ccc(N3CCN(c4ccc(OCC5COC(Cn6cncn6)(c6ccc(Cl)cc6Cl)O5)cc4)CC3)cc2)c1=O (stereo not drawn),,"human, both sexes, plasma","oral, 200 mg, multiple doses, added: pirtobrutinib",,Tmax,3 h
Cc1cc(Nc2ncnc3ccc(NC4=NC(C)(CO)CO4)cc23)ccc1Oc1ccn2ncnc2c1 (stereo not drawn),,"human, plasma","oral, 300 mg tucatinib single dose, day 1, tucatinib alone",,Cmax (arithmetic mean),65.3 ng/mL
CNC(=O)NC1CCC(CCN2CCN(c3cccc(Cl)c3Cl)CC2)CC1 (stereo not drawn),,human,"oral, dose not given, outlier subject excluded, added: erythromycin",baseline: compound alone,AUC(tau) increase,8%
C=CC(=O)Nc1cc(Nc2nccc(-c3cn(C)c4ccccc34)n2)c(OCC(F)(F)F)nc1N(C)CCNC,"substrate, recombinant enzyme",,,,fraction metabolized,83.3% and 83.2%
CC(=O)C(C)n1ncn(-c2ccc(N3CCN(c4ccc(OC[C@H]5CO[C@](Cn6cncn6)(c6ccc(Cl)cc6Cl)O5)cc4)CC3)cc2)c1=O (stereo partly drawn),inhibitor,human liver microsomes,added: testosterone,,IC50,0.0057 µM
CCCCC1=NC2(CCCC2)C(=O)N1Cc1ccc(-c2ccccc2S(=O)(=O)Nc2noc(C)c2C)c(COCC)c1,substrate,recombinant human CYP,,,fraction metabolized,81.3%

# Some of these lines once more:
Structure (SMILES),assay,system,conditions,scale,quantity,result
CSc1ccccc1C(=O)NCCn1cc(C(=O)NCc2cccc(C)n2)c(=O)c2cc3c(cc21)OCO3,"enzyme activity, inhibitor",human liver microsomes,"20 min, 30 min NADPH preincubation, added: testosterone 50 µM",,IC50,6.71 µM
Cc1nc2c([nH]1)c(=O)n(C)c(=O)n2Cc1ccco1,"enzyme activity, inhibitor",,40 µM,,inhibition,-22%
Cn1cncc1[C@@](N)(c1ccc(Cl)cc1)c1ccc2c(c1)c(-c1cccc(Cl)c1)cc(=O)n2C,reaction phenotyping,human liver microsomes,,,fraction metabolised by CYP3A4,~36% and 36.4%
C[C@@H](Oc1ccc(S(C)(=O)=O)cc1C(=O)N1C[C@@H]2C[C@]2(c2cc(C(F)(F)F)on2)C1)C(F)(F)F,"recombinant CYP, average",,,,CYP contribution,96.4%
